# Experimental data gathered from unrelated publications.
# Every numbered part comes from another study and shows a few of its results, in no order. Positions count from the first letter of the parent shown.
# Chain of UniProt P93830 (whole entry, looked up): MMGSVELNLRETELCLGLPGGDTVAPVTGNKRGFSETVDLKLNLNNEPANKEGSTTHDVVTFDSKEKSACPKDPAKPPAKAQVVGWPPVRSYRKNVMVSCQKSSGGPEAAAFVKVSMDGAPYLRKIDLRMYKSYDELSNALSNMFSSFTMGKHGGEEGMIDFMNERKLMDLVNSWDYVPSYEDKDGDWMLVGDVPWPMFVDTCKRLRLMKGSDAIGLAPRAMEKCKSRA
# Chain of UniProt O24409 (whole entry, looked up): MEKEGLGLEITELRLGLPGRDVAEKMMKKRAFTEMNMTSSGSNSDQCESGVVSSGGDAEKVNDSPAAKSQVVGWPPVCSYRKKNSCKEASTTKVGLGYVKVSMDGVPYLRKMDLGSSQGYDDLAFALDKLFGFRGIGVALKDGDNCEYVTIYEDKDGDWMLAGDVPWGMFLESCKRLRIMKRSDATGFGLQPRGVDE
# Chain of UniProt Q9XID4 (whole entry, looked up): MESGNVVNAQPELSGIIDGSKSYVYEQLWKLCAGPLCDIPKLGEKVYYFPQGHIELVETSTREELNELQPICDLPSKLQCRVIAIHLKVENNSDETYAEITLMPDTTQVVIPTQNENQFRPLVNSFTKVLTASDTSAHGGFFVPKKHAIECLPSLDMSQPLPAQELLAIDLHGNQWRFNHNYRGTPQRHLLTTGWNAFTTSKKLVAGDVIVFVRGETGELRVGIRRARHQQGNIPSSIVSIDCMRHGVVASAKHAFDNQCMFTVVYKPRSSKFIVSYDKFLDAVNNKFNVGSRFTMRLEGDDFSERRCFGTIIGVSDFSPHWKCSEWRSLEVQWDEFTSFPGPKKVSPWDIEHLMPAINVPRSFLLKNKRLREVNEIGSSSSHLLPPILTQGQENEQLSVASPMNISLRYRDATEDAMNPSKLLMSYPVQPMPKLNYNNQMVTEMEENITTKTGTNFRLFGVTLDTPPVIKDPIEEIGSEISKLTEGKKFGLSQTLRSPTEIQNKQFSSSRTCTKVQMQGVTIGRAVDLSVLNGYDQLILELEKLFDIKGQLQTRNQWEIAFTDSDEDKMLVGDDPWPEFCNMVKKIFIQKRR
# Chain of UniProt Q9C5X0 (whole entry, looked up): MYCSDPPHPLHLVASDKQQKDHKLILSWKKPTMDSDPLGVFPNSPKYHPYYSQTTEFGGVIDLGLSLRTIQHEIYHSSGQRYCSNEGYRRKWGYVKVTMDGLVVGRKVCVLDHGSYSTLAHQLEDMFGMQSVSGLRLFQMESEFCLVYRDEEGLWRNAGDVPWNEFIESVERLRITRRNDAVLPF
# Chain of UniProt Q9ZPY6 (whole entry, looked up): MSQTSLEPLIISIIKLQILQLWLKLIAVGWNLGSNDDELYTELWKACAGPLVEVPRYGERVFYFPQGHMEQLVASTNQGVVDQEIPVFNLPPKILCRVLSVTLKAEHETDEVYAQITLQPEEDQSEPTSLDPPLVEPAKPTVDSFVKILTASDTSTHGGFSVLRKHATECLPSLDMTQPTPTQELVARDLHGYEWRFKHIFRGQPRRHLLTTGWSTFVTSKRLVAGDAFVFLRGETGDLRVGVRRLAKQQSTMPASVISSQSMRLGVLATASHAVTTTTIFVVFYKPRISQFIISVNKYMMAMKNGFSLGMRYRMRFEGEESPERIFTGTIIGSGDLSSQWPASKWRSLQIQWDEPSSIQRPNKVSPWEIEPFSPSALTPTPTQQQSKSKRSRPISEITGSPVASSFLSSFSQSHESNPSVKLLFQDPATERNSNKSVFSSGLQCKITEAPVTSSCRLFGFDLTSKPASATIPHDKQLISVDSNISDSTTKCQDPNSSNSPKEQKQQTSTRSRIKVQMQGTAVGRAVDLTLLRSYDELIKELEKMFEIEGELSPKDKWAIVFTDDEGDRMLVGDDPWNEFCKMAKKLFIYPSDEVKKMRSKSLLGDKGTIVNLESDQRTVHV
# Chain of UniProt Q9C966 (whole entry, looked up): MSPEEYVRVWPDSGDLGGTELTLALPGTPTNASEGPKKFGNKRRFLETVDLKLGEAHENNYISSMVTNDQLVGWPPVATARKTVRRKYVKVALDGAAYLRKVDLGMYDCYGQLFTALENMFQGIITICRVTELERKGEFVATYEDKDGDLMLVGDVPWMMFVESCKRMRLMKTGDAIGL

# Block 1
# Target: UBE2L6 UBC core domain (UniProt O14933)
# Technique: yeast two-hybrid
# Sample: yeast
# Notes: mostly zero background
# Reference: not given
# Reading: higher = stronger interaction
# B1: MKRN1 RING domain (UniProt Q9UHC7); chain FAVQRSKDMVCGICMEVVYEKANPSERRFGILSNCNHTYCLKCIRKWRSAKQFESKIIKSCPECRITSNFVIPSE
# B2: TRIM5 RING domain (UniProt Q9C035); chain LREVKLSPEGQKVDHCARHGEKLLLFCQEDGKVICWLCERSQEHRGHHTFLTEEVAREYQVKL
# B3: RNF38 RING domain (UniProt Q9H0F5); chain PNNHQSEQTLCVVCMCDFESRQLLRVLPCNHEFHAKCVDKWLKANRTCPICRADASEVHRDS
# B4: TRIM43 RING domain (UniProt Q96BQ3); chain FSHAFQKELTCVICLNYLVDPVTICCGHSFCRPCLCLSWEEAQSPANCPACREPSPKMDFKT
# B5: SH3RF2 RING domain (UniProt Q8TEC5); chain DDLTLLDLLECPVCFEKLDVTAKVLPCQHTFCKPCLQRVFKAHKELRCPECRTPVFSNIEAL
# B6: TRIML1 RING domain (UniProt Q8N9V2); chain LMENLREELTCFICLDYFSSPVTTECGHSFCLVCLLRSWEEHNTPLSCPECWRTLEGPHFQS
# B7: TRIM4 RING domain (UniProt Q9C037); chain EAEDIQEELTCPICLDYFQDPVSIECGHNFCRGCLHRNWAPGGGPFPCPECRHPSAPAALRP
# B8: TRAF5 RING domain (UniProt O00463); chain FVERLEERYKCAFCHSVLHNPHQTGCGHRFCQHCILSLRELNTVPICPVDKEVIKSQEVFK
# B9: RNF208 RING domain (UniProt Q9H0X6); chain SSAAAGEPLECPTCGHSYNVTQRRPRVLSCLHSVCEQCLQILYESCPKYKFISCPTCRRETVLFTDYG
# B10: TRIM40 RING domain (UniProt Q6P9F5); chain LQKDNQEEGVCPICQESLKEAVSTNCGHLFCRVCLTQHVEKASASGVFCCPLCRKPCSEEVLG
# Target sequence (chain): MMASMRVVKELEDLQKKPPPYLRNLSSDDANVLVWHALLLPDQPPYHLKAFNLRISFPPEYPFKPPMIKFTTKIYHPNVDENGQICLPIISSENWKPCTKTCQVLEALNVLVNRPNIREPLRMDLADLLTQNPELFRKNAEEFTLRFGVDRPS
Molecule,lacZ reporter activity
QVDKAVFHMQSVKCLKCQEQKRAVLPCQHAALCELCAEGSECPICQPGRAHTLQS (UNK RING domain (UniProt Q9C0B0)),0
MPIRALCTICSDFFDHSRDVAAIHCGHTFHLQCLIQWFETAPSRTCPQCRIQVGKRTIIN (TRAIP RING domain (UniProt Q9BWF2)),0
B1 (MKRN1 RING domain),0
B2 (TRIM5 RING domain),0
B3 (RNF38 RING domain),0
PAELEVQASECVVCLEREAQMIFLNCGHVCCCQQCCQPLRTCPLCRQDIAQRLRIY (LRSAM1 RING domain (UniProt Q6UWE0)),0
B4 (TRIM43 RING domain),0
B5 (SH3RF2 RING domain),0
DHGAVGQEMCCPICCSEYVKGEVATELPCHHYFHKPCVSIWLQKSGTCPVCRCMFPPPL (PJA1 RING domain (UniProt Q8NG27)),0
B6 (TRIML1 RING domain),0
FQGDVDEDLICPICSGVLEEPVQAPHCEHAFCNACITQWFSQQQTCPVDRSVVTVAHLRP (RNF41 RING domain (UniProt Q9H4P4)),0
B7 (TRIM4 RING domain),0
B8 (TRAF5 RING domain),0
B9 (RNF208 RING domain),0
B10 (TRIM40 RING domain),0

# Block 2
# Target: CCNB2, cyclin fold, Cln2 fusion (human)
# Technique: yeast growth competition, sequencing
# Sample: yeast
# Notes: weak parent motif
# Reference: not given
# Reading: higher = stronger binding
# Starting sequence: E2F8 docking peptide (human); FVPQRKLEVSTED; partner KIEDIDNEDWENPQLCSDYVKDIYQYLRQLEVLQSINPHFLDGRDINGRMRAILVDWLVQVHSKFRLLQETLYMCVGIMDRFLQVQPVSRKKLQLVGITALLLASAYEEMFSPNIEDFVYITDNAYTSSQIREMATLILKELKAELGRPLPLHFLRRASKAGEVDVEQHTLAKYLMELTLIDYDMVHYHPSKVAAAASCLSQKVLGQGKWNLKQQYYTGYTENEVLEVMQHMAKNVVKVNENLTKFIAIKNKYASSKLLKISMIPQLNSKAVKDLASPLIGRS
Substitution,normalised enrichment score
R5A L7A,-0.301
V9A,-0.149
S10A,-0.357
T11A,-0.0666
R5K V9L,-0.0792
V9L,-0.33
E8A,-0.186
V9F,-0.0221
R5A,-0.348
E12A,-0.192
K6A,-0.293

# Block 3
# Target: Sal-like protein 4, full length isoform A (SALL4, Homo sapiens, UniProt Q9UJQ4, residues 1-1053)
# Chain of UniProt Q9UJQ4 (whole entry, looked up): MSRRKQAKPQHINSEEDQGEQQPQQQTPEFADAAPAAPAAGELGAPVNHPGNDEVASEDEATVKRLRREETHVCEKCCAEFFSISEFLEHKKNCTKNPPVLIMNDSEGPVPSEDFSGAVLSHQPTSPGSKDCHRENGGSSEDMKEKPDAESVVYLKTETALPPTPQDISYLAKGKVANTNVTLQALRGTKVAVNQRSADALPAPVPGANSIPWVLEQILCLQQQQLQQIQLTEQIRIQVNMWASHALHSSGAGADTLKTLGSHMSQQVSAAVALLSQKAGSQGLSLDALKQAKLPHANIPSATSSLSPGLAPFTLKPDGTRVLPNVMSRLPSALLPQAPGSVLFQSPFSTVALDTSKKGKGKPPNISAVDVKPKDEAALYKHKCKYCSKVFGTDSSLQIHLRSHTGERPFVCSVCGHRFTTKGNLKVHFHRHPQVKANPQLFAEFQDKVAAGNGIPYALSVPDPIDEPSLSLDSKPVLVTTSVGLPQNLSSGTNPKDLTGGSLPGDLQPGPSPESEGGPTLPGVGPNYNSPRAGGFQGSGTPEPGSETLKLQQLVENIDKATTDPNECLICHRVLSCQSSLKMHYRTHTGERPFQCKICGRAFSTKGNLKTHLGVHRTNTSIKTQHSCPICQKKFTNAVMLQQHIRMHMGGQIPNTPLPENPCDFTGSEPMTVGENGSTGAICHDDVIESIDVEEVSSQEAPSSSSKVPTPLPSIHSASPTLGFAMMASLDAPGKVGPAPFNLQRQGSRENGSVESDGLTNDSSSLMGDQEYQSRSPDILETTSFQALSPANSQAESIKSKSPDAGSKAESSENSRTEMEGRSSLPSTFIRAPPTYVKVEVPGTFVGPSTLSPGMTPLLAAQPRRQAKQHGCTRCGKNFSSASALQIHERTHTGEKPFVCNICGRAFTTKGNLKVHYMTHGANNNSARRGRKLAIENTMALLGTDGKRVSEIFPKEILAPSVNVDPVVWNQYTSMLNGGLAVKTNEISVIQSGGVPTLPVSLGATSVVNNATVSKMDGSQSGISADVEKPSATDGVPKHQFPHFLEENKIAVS
# Technique: universal PBM
# Molecule type: double-stranded DNA, one strand shown
# Sample: in vitro
# Tested at: 600 nM
# Notes: 8-mer, flanks averaged, mean of replicates
# Reading: higher = stronger binding
Sequence,E-score
AAGCTATG,0.0747
ACTCTACT,0.156
GCTGGCAC,-0.228
AGGGGCCA,-0.362
AGCCCCCA,-0.325
CCATGCGC,-0.226
ATAAGTTA,0.349
CGTTTTAG,0.0871
CATCAAGC,-0.0798
ATGTGACA,0.116
CAGCGCCC,-0.279
CGCACCCA,-0.302
AAACGGTC,-0.145
CAAACGTG,0.0553
GCAAAACC,-0.0422
GATGGGGC,-0.319
AACTCTTG,-0.00949

# Block 4
# Target: ABI1, truncated, D143A, DHFR fusion (Arabidopsis thaliana)
# Technique: DHFR PCA, deep sequencing
# Sample: yeast
# Notes: methotrexate growth selection, single substitutions
# Together with: (+)-ABA 17 µM
# Reference: wild-type fitted maximum
# Reading: higher = stronger binding
# Starting sequence: PYL1, truncated, DHFR fusion (Arabidopsis thaliana); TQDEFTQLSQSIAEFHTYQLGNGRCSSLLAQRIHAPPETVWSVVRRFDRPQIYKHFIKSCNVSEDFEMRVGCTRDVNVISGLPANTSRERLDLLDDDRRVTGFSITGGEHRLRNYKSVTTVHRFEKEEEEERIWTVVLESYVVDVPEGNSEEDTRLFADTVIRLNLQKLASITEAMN
Substitution,relative binding score [%]
R45S,46.6
N149M,10.9
F103T,-11
S9H,76
L28Y,31.4
E147A,81.3
R132H,87.7
C60W,1.77
G21V,82.5
T86L,51.4
Y115G,-1.67
S42Q,80.6
E127A,83.1

# Block 5
# Molecule: B11 (IAA12)
# Technique: two-hybrid
# Reading: higher = firmer interaction
# B11: IAA12 (Arabidopsis thaliana, UniProt Q38830); chain MRGVSELEVGKSNLPAESELELGLGLSLGGGAWKERGRILTAKDFPSVGSKRSAESSSHQGASPPRSSQVVGWPPIGLHRMNSLVNNQAMKAARAEEGDGEKKVVKNDELKDVSMKVNPKVQGLGFVKVNMDGVGIGRKVDMRAHSSYENLAQTLEEMFFGMTGTTCREKVKPLRLLDGSSDFVLTYEDKEGDWMLVGDVPWRMFINSVKRLRIMGTSEASGLAPRRQEQKDRQRNNPV
partner,how to read,positive tests
"ARF12 500-593 (Arabidopsis thaliana, UniProt Q9XID4)",reference: out of 4 tests,0
"IAA34 (Arabidopsis thaliana, UniProt Q9C5X0)",reference: out of 2 tests,1
"IAA19 (Arabidopsis thaliana, UniProt O24409)",reference: out of 4 tests,4
"IAA13 (Arabidopsis thaliana, UniProt Q38831)",reference: out of 4 tests,2
"ARF11 500-622 (Arabidopsis thaliana, UniProt Q9ZPY6)",reference: out of 4 tests,0
"IAA17 (Arabidopsis thaliana, UniProt P93830)",reference: out of 4 tests,2
"IAA15 (Arabidopsis thaliana, UniProt Q9C966)",reference: out of 4 tests,2

# Block 6
# Target: Histone acetyltransferase KAT6A, winged helix 2, GST fusion (KAT6A, Homo sapiens, UniProt Q92794, residues 85-181)
# Technique: protein binding microarray
# Molecule type: double-stranded DNA, one strand shown
# Sample: in vitro
# Tested at: not given
# Notes: 8-mer, flanks averaged, mean of 2 arrays, mostly near background
# Reference: not given
# Reading: higher = stronger binding
# Construct (chain): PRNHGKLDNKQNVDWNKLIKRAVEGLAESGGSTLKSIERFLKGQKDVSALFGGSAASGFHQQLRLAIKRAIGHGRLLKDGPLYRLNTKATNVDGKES
Sequence,E-score
GAAGGTGC,-0.0631
TATTGACA,-0.166
CCATAGAG,-0.0738
TACTGCAA,-0.103
GACTCGCC,-0.0763
TAAGGGGA,-0.147
GCCTGTAC,0.152
GCAAGGCA,0.186
CGCCTTAC,-0.0672
GGCGACCA,0.0495
CATGCTAG,-0.116
GAGCACAA,0.047
AACGCTTA,-0.195
AAGACGAA,0.135
CTAGATCC,-0.0673
CTTAGCGC,0.109
GCCAGGGC,0.0605
CTGGTGGC,0.0691
CTTATATA,-0.115
CAGAATGA,-0.0616
ATCTCATG,-0.00732
ATTACTTG,0.0542
CATGTGCC,-0.0398

# Excerpt of the above (block 6):
Sequence,E-score
TATTGACA,-0.166
CCATAGAG,-0.0738
TACTGCAA,-0.103
GACTCGCC,-0.0763
TAAGGGGA,-0.147
GCCTGTAC,0.152
GCAAGGCA,0.186
